Results collected from several papers.
Parts stem from different laboratories: compare values within a part only.

Sample 1
Target: Interferon regulatory factor 3, full length, phosphomimetic (IRF3, Homo sapiens, UniProt Q14653, residues 1-427, S386D/S396D/S398D/S402D/T404D/S405D)
Chain of UniProt Q14653 (whole entry, unmodified, looked up): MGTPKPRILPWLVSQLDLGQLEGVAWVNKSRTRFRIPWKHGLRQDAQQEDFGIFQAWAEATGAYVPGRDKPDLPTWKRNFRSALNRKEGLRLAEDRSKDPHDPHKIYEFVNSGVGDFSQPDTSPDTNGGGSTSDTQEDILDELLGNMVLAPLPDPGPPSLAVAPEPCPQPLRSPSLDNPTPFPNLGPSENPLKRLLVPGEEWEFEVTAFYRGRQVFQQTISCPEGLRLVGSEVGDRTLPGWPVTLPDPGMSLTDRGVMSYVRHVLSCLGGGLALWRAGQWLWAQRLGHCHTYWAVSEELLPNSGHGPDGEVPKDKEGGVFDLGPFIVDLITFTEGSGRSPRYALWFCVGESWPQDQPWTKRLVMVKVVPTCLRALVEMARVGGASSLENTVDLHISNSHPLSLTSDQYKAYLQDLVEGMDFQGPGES
Technique: protein-binding microarray
Form: double-stranded DNA, one strand shown
Sample: in vitro
Concentration: 2540 nM top
Setting: 60-bp whole probe
With: salmon DNA 0.4 mg/ml
Reference: random background probes
Direction: higher = stronger binding
Constant ends, left off below: GCCTAGCAC … GTCTTGATTCGCTTGACGCTGCTG
| Sequence | fitted relative affinity |
| --- | --- |
| TACGAACTGAGACTGGAGACGTGCTAG | -0.316 z-score |
| GCCGAACTGGGGACTGGAGACGTGCTA | 0.578 z-score |
| TCAAGGCTGGTCTCTAACACTGTGCTA | -0.927 z-score |
| GACGGTCTCGGTTTCGGCACGTGCTAG | 3.3 z-score |
| GACGATCTCACTTTCGAGACGTGCTAG | 2.02 z-score |
| GACGATATCAGTCTCGAAACGTGCTAG | 1.48 z-score |
| GACGATCTCAGTCTCGAGCCGTGCTAG | 0.522 z-score |

Sample 2
Target: Histone acetyltransferase KAT6A, winged helix 2, GST fusion (KAT6A, Homo sapiens, UniProt Q92794, residues 85-181)
Technique: protein binding microarray
Form: double-stranded DNA, one strand shown
Sample: in vitro
Concentration: not given
Setting: 8-mer, flanks averaged, mean of 2 arrays, mostly near background
Reference: not given
Direction: higher = stronger binding
Construct (chain): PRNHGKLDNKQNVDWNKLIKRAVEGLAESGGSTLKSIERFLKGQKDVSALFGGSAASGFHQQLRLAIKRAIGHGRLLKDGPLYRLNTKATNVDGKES
| Sequence | E-score |
| --- | --- |
| AGAGATCC | 0.0452 |
| CCACGATC | 0.0332 |
| CACCGGGA | -0.0421 |
| CTTTCTTA | -0.0313 |
| CCTGGTAG | -0.0267 |
| GCCCGCCA | 0.0915 |
| ACGCGACC | 0.0381 |
| ATAAGCTA | -0.107 |

Sample 3
Target: PABPC1L2, full length, GST fusion (mouse, UniProt A0ABA7IW68)
Technique: RNAcompete
Form: RNA
Sample: in vitro
Concentration: 20 nM
Setting: 7-mer, probes averaged, single round
Reference: mean of 7-mers
Direction: higher = stronger binding
Target sequence (chain): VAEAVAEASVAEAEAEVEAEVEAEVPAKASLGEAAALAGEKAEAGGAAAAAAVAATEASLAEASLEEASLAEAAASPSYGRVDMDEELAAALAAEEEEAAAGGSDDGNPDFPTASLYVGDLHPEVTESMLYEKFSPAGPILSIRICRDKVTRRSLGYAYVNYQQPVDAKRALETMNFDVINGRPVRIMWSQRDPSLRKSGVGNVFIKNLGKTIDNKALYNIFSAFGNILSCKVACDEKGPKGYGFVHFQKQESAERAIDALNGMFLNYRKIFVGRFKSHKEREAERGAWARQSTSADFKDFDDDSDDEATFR
| Sequence | 7-mer Z-score |
| --- | --- |
| AGCAGAC | 0.171 |
| GGGUAAA | 0.833 |
| CUGGGCG | 0.128 |
| CAUCGUU | -0.402 |
| CAUCCUG | -0.353 |
| AGAGUCG | -0.333 |

Other studies, line by line
| Substance | target | assay | test system | setting | scale | quantity | result |
| --- | --- | --- | --- | --- | --- | --- | --- |
| PhoQ, residues 284 288 289 292 302 303 NSMLDC | PhoP, residues 12 14 15 18 19 STHWV (Escherichia coli, UniProt P23836) | Sort-seq, item: YFP reporter | E. coli | PhoQ-PhoP variant library, with: 10 µM Mg2+ | reference: high Mg2+ state, higher = stronger signaling | fold induction | 4.66 |

A few entries again (sample 1):
| Sequence | fitted relative affinity |
| --- | --- |
| GACGATCTCACTTTCGAGACGTGCTAG | 2.02 z-score |
| TCAAGGCTGGTCTCTAACACTGTGCTA | -0.927 z-score |
